Assay results pooled from the literature.
Parts stem from different laboratories: compare values within a part only.

Series 1
Target: Protein C-ets-1 (ETS1, Homo sapiens, UniProt P14921, residues 1-441, full length assumed)
Method: protein-binding microarray
Form: double-stranded DNA, one strand shown
Matrix: in vitro
Concentration: not given
Notes: k-mer, scored over probes, only values ≥0.25
Reading: higher = stronger binding
Target sequence (chain): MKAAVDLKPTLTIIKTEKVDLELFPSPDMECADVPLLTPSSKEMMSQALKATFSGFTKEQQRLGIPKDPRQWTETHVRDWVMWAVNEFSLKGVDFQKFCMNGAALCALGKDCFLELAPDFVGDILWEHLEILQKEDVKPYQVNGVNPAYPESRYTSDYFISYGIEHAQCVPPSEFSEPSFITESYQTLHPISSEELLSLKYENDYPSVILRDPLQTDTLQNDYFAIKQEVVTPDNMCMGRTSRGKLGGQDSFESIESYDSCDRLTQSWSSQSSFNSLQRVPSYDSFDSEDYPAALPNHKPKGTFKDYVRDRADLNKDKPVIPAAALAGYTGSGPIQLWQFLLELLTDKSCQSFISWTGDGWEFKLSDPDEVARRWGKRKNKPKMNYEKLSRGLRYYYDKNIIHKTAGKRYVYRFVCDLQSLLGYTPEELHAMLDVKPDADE
Oligonucleotide	E-score
TATGCGGA	0.265
CGGACGTA	0.42
CAAGGAAA	0.253
GCTTATCC	0.258
ATATCCGA	0.318
ATCCTGAC	0.253
AGAGGATA	0.268
CTGCATCC	0.398
AACGGATG	0.461
CGGATTTC	0.333
CCGGCGGA	0.41
ACTCCCGG	0.264
GATATTCC	0.252
CGGGGGGA	0.266
GGATGACA	0.25
CAATTTCC	0.444
GATGTTCC	0.342
ACATCCCC	0.363
CGGTTATC	0.257
CGGATATC	0.462
TCCGGGAA	0.409
CGGACTTC	0.301

Series 2
Target: Sal-like protein 4, full length isoform B (SALL4, Homo sapiens, UniProt Q9UJQ4-2, residues 1-616)
Method: universal PBM
Form: double-stranded DNA, one strand shown
Matrix: in vitro
Concentration: not given
Notes: 8-mer, flanks averaged, mean of replicates
Reading: higher = stronger binding
Oligonucleotide	E-score
ACACACGT	0.13
AGATACGA	0.115
GTCAAAAA	0.126
CTTGCCCA	-0.0653
CTCAGAAC	-0.0844
AGATGGTG	-0.0667
GGTTAAGA	0.0289
CGCACAAC	0.0232
ATATTTTG	0.395
CATTCGGC	-0.229
CGTTTTTA	0.126
CGATCTGA	-0.0158
ATGGATCA	0.07
CATACCAG	0.0279
CTATTTCC	0.175
AAGTTGAC	-0.0657
AACTTATG	0.307
ACCACTAA	0.0199
AATCAATA	0.368
AGTACTTG	0.166
AAATGCCA	0.0618
ACTGATAG	0.0968
CAGCTCTA	-0.121
GCAAGCTA	-0.00878
CCGATAGC	-0.223

Series 3
Target: Phosphate system positive regulatory protein PHO4, full length, GST-tagged (PHO4, Saccharomyces cerevisiae, UniProt P07270, residues 1-312)
Method: competition protein-binding microarray
Form: double-stranded DNA, one strand shown
Matrix: in vitro
Concentration: 2 µM
Notes: whole 60-bp probe, lowest competitor level
Together with: Cbf1 competitor, 0.05 µM
Reading: higher = stronger binding
Construct (chain): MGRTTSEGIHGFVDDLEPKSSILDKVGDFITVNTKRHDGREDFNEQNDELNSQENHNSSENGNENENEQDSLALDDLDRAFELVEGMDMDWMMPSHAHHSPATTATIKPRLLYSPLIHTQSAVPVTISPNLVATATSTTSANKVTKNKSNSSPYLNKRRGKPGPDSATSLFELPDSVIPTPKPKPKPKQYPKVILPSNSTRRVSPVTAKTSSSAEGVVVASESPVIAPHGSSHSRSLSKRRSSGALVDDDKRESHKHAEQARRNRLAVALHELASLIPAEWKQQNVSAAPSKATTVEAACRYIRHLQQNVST
Oligonucleotide	fluorescence intensity [a.u.]
CACACCGTACTTGAGCACATGTCTGGATTGCTAGCTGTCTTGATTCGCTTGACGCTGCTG	14700
GTCGTCTATGGGTGTTGCGTGGGTAGTTCTCGCGCTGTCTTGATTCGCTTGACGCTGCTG	7180
GTCTTGTCTCATTTTCACGTGATCTTCCCCACTTCAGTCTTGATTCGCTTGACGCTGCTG	11800
TGCGCAACAACTTGAGGTGTGGGTGTATGTCTAGAAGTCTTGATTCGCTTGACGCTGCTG	6340
CCGGTCAAGGTCTGGCACGTGGAGTCCAGGACATCCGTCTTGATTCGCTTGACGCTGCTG	19300
CAGTCTCTGCAAAAGCACGTGCGATGTCTCTGGTGTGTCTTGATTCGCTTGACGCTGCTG	20800
GAGAAACTATTACAGCACGTGAAATCCTTGCCTATGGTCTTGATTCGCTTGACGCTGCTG	13900
TTGAAGAGGATTTGACTCGTGTTGACAAGGCAATCAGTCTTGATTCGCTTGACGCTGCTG	8220
CGAGAATGTCCGGAACACATGTCAATATTTGCTCCTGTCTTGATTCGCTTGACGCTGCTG	9800
TGCGCAACAACTTGACTAGTGGGTGTATGTCTAGAAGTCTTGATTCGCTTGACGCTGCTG	4820
TTGCGCTAACGAAACCACATGGATCCTCCACACAACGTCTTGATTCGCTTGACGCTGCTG	7730
GTTGAGGTGAACCAGCTCGTGGAGTAGACCGTTGAGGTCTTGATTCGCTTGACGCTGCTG	8390
CTAACGAAGGTTTGCAACGTGGGTGACAAGCCAAGTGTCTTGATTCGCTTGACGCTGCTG	12800
TGCGCAACAACTTGTCACTTTACTTTATGTCTAGAAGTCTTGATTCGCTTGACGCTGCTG	2850
CCGTCAACGGTCAAGCCCGTGACAAAGCCACAATGAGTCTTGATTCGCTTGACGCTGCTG	6640
CTAATTGTGCTTTTGCACGTGCCAGGTTTATTAAACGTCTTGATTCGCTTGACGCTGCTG	18000
CGTCCTAGCGATTGAAGAGTGGGTGCCATGAGGAAGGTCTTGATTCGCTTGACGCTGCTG	5800

Series 4
Target: Histone acetyltransferase KAT6A, winged helix 2, GST fusion (KAT6A, Homo sapiens, UniProt Q92794, residues 85-181)
Method: protein binding microarray
Form: double-stranded DNA, one strand shown
Matrix: in vitro
Concentration: not given
Notes: 8-mer, flanks averaged, mean of 2 arrays, mostly near background
Reference: not given
Reading: higher = stronger binding
Target sequence (chain): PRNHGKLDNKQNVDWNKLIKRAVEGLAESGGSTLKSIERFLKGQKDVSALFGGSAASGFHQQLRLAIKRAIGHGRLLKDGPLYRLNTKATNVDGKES
Oligonucleotide	E-score
ACGACGTA	-0.109
GATGCATC	0.00128
CTAAACAA	-0.157
CACCTGAC	-0.152
AATCAGCA	0.196
GGTGCTGA	0.0393
CCTGGTAC	0.0654
GCAGGAGA	0.128
CTCGCTAC	-0.0247
GTGGGTGA	0.0572
GTAAGCGA	0.0581
ACGGCCAG	-0.0459
TAATTTCA	0.116
CATTCGAC	-0.00834
CAGTGGCC	0.0833
GAACGGAC	-0.045
GATCCTCC	-0.14
TAAGTCTA	-0.277

Series 5
Target: Interferon regulatory factor 7, full length, phosphomimetic (IRF7, Homo sapiens, UniProt Q92985, residues 1-503, S471D/S472D/S475D/S476D/S477D/S483D/S484D/S487D)
Sequence of UniProt Q92985 (whole entry, unmodified, looked up): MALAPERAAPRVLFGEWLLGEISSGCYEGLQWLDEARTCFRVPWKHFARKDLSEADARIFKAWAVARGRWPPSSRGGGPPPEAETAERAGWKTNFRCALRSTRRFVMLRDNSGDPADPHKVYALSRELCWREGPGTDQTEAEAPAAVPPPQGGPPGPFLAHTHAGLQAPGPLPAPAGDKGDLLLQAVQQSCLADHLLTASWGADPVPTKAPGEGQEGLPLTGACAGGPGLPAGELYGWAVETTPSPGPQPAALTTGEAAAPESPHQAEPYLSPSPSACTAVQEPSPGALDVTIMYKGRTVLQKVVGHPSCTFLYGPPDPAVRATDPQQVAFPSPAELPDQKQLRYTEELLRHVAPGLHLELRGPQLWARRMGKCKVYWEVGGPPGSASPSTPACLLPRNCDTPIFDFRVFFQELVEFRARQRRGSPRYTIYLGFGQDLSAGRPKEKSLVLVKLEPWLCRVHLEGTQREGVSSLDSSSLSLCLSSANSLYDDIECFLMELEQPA
Method: protein-binding microarray
Form: double-stranded DNA, one strand shown
Matrix: in vitro
Concentration: 2200 nM top
Notes: 60-bp whole probe
Together with: salmon DNA 0.4 mg/ml
Reference: random background probes
Reading: higher = stronger binding
All sequences stand within: GCCTAGCAC … GTCTTGATTCGCTTGACGCTGCTG
Oligonucleotide	fitted relative affinity [z-score]
GACGGTTTCCGACTGCTGACGTGCTAG	2.07
TTAGGATTCCTTTCCCTTTAGTGCTAG	2.92
TTAGATTTCAGTATCGATTGGTGCTAG	1.14
TACGGTTTCGGTTTCGGGACGTGCTAG	14.8
GACGATTTCAGTCTCGACACGTGCTAG	0.888
GGCGGACTGGGTCTCGGGACGTGCTAG	-1.66
ATAGGTATCCTTCTCCTTTAGTGCTAG	1.33
TTAGGTTTCGTACTGCTTTAGTGCTAG	3.67
TTAGCTCTCCTTCTCCTTTAGTGCTAG	1.39
GACGGTTTCGGTTCCGGGCCGTGCTAG	10.9
TTGGAACTGGGGTTTCGATTAGTGCTA	2.09
GACGGACTGGACTATCGGGATGTGCTA	-0.578
GACGACTTCGGGACTGGAGACGTGCTA	-0.336
TTAGATATCATTCTCGATTAGTGCTAG	0.625
GACGCTTTCGACACTGGGGACGTGCTA	3.49
TCAATTTTCGTTTTTATACTGTGCTAG	9
CTGTTTTTGCTTTCCTTCATGTGCTAG	5.53
